# Measured values gathered from unrelated publications.
# Numbered parts are unrelated; each lists some results of a single study. Positions count from the first letter of the parent shown.

# Block 1
# Target: Interferon regulatory factor 7, full length, phosphomimetic (IRF7, Homo sapiens, UniProt Q92985, residues 1-503, S101K/S471D/S472D/S475D/S476D/S477D/S483D/S484D/S487D)
# Sequence of UniProt Q92985 (whole entry, unmodified, looked up): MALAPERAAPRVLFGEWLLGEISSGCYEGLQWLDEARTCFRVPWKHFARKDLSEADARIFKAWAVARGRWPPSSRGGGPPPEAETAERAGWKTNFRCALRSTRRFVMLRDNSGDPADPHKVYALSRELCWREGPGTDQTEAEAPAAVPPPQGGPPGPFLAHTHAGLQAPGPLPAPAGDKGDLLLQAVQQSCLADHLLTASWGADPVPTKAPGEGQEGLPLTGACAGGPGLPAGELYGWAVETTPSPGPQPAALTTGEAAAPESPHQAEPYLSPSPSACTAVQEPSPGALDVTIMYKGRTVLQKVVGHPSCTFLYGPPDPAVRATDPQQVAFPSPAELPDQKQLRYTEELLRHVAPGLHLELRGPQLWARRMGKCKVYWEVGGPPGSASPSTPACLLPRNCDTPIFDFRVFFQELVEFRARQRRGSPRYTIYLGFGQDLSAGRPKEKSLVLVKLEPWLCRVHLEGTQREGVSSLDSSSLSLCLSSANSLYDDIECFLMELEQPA
# Method: protein-binding microarray
# Form: double-stranded DNA, one strand shown
# Sample: in vitro
# Tested at: 250 nM
# Setting: 60-bp whole probe
# With: salmon DNA 0.4 mg/ml
# Relative to: random background probes
# Reading: higher = stronger binding
# Shared flanks, not repeated: GCCTAGCAC … GTCTTGATTCGCTTGACGCTGCTG
Sequence,log fluorescence
TTAGGTCTCGGTATCGGTTTGTGCTAG,5.16 z-score
TTCACTTTCTTTACTTCACTGTGCTAG,1.11 z-score
CTTGCTTTTTAGATCGTCCCGTGCTAG,0.484 z-score
TGAAAATTAGTGTTTGCCCTAGTGCTA,-0.325 z-score
TTAGGACTGGGGCTGGGTTAGTGCTAG,-0.324 z-score
GACGGTTTCGGGTTTCGGTACGTGCTA,12.2 z-score
TCAATTTTTGCTTACGAACTGTGCTAG,0.118 z-score
GACAGTTTCGGGTTTCGGGACGTGCTA,11.2 z-score
CTAGGACTGGGTCTCGGTTAGTGCTAG,1.21 z-score
GACCGTTTCCTTTTCCTGACGTGCTAG,4.46 z-score
GACGGTTTCCTGCTGCTGACGTGCTAG,1.06 z-score
GACGATTCCAGTTTCGATACGTGCTAG,7.11 z-score
TTAGGTTTACTTTTCCTTTAGTGCTAG,1.27 z-score
TTAGATCTAAGACTGGATTAGTGCTAG,0.00181 z-score
TTTCTTTTCTTTTCTTTTTTGTGCTAG,4.94 z-score
AACGATATCGGGTATCGAGACGTGCTA,0.18 z-score
GACGCACTGAGTATCGAGACGTGCTAG,0.155 z-score

# Block 2
# Target: CCNA1, cyclin fold, Cln2 fusion (human)
# Method: yeast growth competition, sequencing
# Sample: yeast
# Setting: weak parent motif
# Relative to: not given
# Reading: higher = stronger binding
# Starting sequence: DBF4B docking peptide (human); LGYLYLLLTQSLW; partner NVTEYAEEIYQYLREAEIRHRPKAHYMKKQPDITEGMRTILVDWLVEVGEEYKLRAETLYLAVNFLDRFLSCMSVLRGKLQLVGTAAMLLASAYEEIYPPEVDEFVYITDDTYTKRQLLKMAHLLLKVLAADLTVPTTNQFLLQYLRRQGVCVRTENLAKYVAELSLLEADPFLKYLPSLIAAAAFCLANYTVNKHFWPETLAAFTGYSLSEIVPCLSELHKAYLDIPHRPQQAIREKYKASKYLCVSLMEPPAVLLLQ
Change,normalised enrichment score
L8A,0.0269
Y3A,-0.541
Y5A,-0.0308
L4A,-0.117
T9A,0.217
L7A,-0.891

# Block 3
# Target: RNA binding protein fox-1 homolog 2, RRM domain, GST-SBP tag (RBFOX2, Homo sapiens, UniProt O43251-10, residues 100-194)
# Method: RNA Bind-n-Seq
# Form: RNA
# Sample: in vitro
# Tested at: 365 nM
# Setting: natural RNA segment, single round, ends assumed
# Relative to: no-protein control
# Reading: higher = stronger binding
# Shared flanks, not repeated: GGGAGUUCUACAGUCCGACGAUC … UGGAAUUCUCGGGUGCCAA
# Construct (chain): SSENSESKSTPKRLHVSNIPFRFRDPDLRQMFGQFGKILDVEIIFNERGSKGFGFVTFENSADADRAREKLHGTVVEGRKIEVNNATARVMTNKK
Sequence,RBNS enrichment (R)
AUUUUUUUACAAUUCAUUUUGACUCUCAUGGCUGACCAUGUCAUUAUGUCUUUAAAUUUUGGUAAAUAUGUAGAUACCAAGCAUUAAUAACUAAUGCACACAGAAAUUUA,0.706
UGGUGUUUCAUAAGCAUGCCUGCUGACAGCUGUAUGUGGUACUGCAGUGUUUACCAUAAACAGGUACAGGCUUCAUGAGUUUUUCAUACUGAUUUACAAUUGAGUAGAUA,5.08
GAUGCCCAUGUUUUAUUGCUAUUACUAAAUGUCAAGAUUGUAUGCUAUUAUGUCUUGUAAAUUUCUUUUGUUGGUGUAAAUAUGGAAAUGCCACAUUGGUUAAGUGCCAU,0.552
UGUCCACGGGGUCGAUGCUGUUAUUAGGUGAAAAUAGUGUGAUCUUUAAGACUUUAAAUACAGAUUUAGUUUUGAGUGUUUGAGAGACCACUACACUUGUAUGGUUGAGU,0.63
UCUCAUGUAUCGUAGAUUGGCCUUUAAGUCACUUUACCAAGGAUGAUCUUUGAACUCCUGAGUACAGACUGCGGGUGUGUGCUACCAUGCUUUAUGUGGCCCUGGGUUCA,0.327
CUGCUUGACAAUAAUUCCCUUCCCCCAAAAUGAGCAGUGUAGGCAAGAAAAUUCUAGCCAUGACCAGUGGUCCCUCAGAGCUAACCAUCUCUGAGGCAUUGUGGUGGUCC,0.54
AAGCCUUCAUCUUCUUGAGUACCCAAACCAGGCUUCAGGUGUCCUUUGAGGAUAGCCAGGUUUGAAAUUUUUAGUUUCUCAGGAAGAGCUCUUCUAUGUGGCAGGGGCUG,1.1
GCCAUUGGCGGUUCUGCUGCUUCGCUGCAGGGAUAAGGUGGAGCUACCGAACAGCUGAUUCAUAUGCCAAGAAUUUGGAGUCUUCUUUCAAACCAGUGGGGGUUGGACAA,0.409
AUGUAAGAUUUUACAAAUCUUUUAUUUCCCCACAAGAUCUGAAGUUUGGUAUUUUUGCAUUAUGACAGUUGUUGAGACUAGGAUUUUAAGCUAGGAUAUGAUUAUAUUUC,0.684
UUGUGACACCGGAGUCUGAGGUGGAACAGAGCCAGUGUCAGGAAAGCCCCUCAGCAAGAAAGAAGAGUCAUUGCUGGUUCCCAGGGGCAGUCACAGAGGAUGAAAUACCA,0.502
GUUCCUGAUUUCUGUAUACAUGUAGCUUUGCCAGAUAUGUACUUAGUAAUAUAAACUGUAUUAAUAAAAUCCAUUUACUGUGUAAUACACGAGUUUAAAAAUUAAGAGCG,0.325
CCCCGCCUGCCACCUCCCCCCACAAGUGCCCUCCAGGCUUUUCUUGGGGAAGAUACCCCUUUUCUGAGGAAUGAGUUUGCCUCCGUCCCCUGCCCAUGCUGGGAGCCCAC,0.518

# Block 4
# Target: Prothrombin, mature alpha-thrombin (F2, Homo sapiens, UniProt P00734)
# Method: aptamer microarray, sandwich
# Form: DNA with 2'F-ANA
# Sample: in vitro
# Tested at: 200 nM
# Setting: whole 15-mer aptamer, many near background
# With: Cy3 exosite-II aptamer, 400 nM
# Reading: higher = stronger binding
# Sequence: GGTTGGTGTGGTTGG
Modification,mean fluorescence intensity [a.u.]
2'F-ANA at 1 5 6 8 9 10 12 13 14,45
2'F-ANA at 4 6 9 10 11 12 13 15,79
2'F-ANA at 1 2 4 7 13 14 15,54.4
2'F-ANA at 1 2 5 9 10 11 13 14 15,57.5
2'F-ANA at 5 7 9 11 13 14,46.4
2'F-ANA at 3 4 6 8 9 11 13 14,217
2'F-ANA at 1 3 4 5 6 9 12 13 14,48.8
2'F-ANA at 1 3 10 11 12 13 14 15,62.3
2'F-ANA at 2 5 10 11 14,51.9
2'F-ANA at 1 4 5 6 13 14 15,46
2'F-ANA at 4 5 6 7 10 13 15,45.1
2'F-ANA at 5 9 11,63.6
2'F-ANA at 2 5 6 9 11 12 13,81
2'F-ANA at 1 9 10 11 12 13,64.3
2'F-ANA at 2 9 10 15,121
2'F-ANA at 2 3 5 7 8 9 10 12 14,49.7
2'F-ANA at 1 3 4 7 11 15,193
2'F-ANA at 1 2 3 4 5 8 9 11 15,53.5
2'F-ANA at 2 3 4 5 6 8 9 13 15,58.7
2'F-ANA at 2 3 9 10 11 12 13 15,450
2'F-ANA at 1 3 4 5 6 7 9 14 15,50.1
2'F-ANA at 1 4 9 11 13 14,56
2'F-ANA at 1 2 6 11 12 13 14 15,65.8
2'F-ANA at 1 2 3 4 6 9 10 11 12,65.5
2'F-ANA at 4 10 11 12 13 15,87.8

# Block 5
# Target: Ras GTPase-activating protein-binding protein 1, C-terminal RGG region (G3BP1, Homo sapiens, UniProt Q13283)
# Sequence of UniProt Q13283 (whole entry, looked up): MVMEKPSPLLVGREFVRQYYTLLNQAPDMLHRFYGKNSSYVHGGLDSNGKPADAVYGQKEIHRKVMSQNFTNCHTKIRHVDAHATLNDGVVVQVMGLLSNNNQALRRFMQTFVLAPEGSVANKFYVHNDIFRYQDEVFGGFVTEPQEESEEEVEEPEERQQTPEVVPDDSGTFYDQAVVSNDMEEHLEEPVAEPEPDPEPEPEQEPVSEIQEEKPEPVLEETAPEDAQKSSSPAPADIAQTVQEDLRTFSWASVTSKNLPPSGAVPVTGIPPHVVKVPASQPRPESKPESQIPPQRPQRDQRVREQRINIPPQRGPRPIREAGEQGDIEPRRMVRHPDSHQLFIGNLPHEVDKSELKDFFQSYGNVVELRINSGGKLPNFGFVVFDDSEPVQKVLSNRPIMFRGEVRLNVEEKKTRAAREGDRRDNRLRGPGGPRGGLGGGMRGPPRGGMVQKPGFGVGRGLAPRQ
# Method: RNA Bind-n-Seq
# Form: RNA
# Sample: in vitro
# Tested at: 1 µM
# Setting: whole 134-nt RNA, ends assumed
# With: 150 mM KCl
# Relative to: input library
# Reading: higher = stronger binding
# Shared flanks, not repeated: GGGAGUUCUACAGUCCGACGAUC … UGGAAUUCUCGGGUGUCAAGG
Sequence,log2 enrichment
UGGCCCUGGUGGCAUGCGGGGAGGAAGAGGUGGCCUCAUGGAUCGUGGUGGUCCCGGUGGAAUGUUCAGCGGUGGCCGUGGUGGAGACAG,2.75
UCCUGUGCUACACAUCGUAUGUACCGAAUCAAACCCCCCCAAACCCCCCCAAACCCAAAAAAGUAUUAUGUUACGCCGUUCGGAUCUGCA,-0.613
UGAUGAUAGUAGCAGAGAAGAUGAACAUACACAUACUAACAGUGUCACGAACUCCAGUAGUAUUGUGGACCUGCCCGUUCACCAACUCUC,0.215
ACCAUGCAGGUGGGCAUCUUUGGGAAGUGGGGCUAGGGGGGGAUAGGGAGGGGGGUAACACUUUGGGAACAGGUGGUCCCAGGUCGUUUC,-0.673
UGUCAUGGAUUCAAGUUAUUAAAAGCAUAAGUUUGGAAGACAGGCUUGCCGAAAUUGAGGACAUGAUUAAAAUUGCAGUGAAGUUUGAAA,-2.57
CUGUGCUACACAUCGUAUGUACCGAAUCGGGGUUUUUUUGGUUUUUUUGGGGUUUUUUUGGGAAAGUAUUAUGUUACGCCGUUCGGAUCU,-1.29
ACCAUGCAGGUGGGCAUCUUUGGGAAGUGGGGCAAGGGGGGGAUAGGGAGGGGGGUAACACUUUGGGAACAGGUGGGCCCAGGUCGUUUC,2.73
CUCAAGUCCUGUGCUACACAUCGUAUGUACCGAAUCGGCCGGGCCGGGCCGGGAAAGUAUUAUGUUACGCCGUUCGGAUCUGCACUUCCA,-1.37
UGUGCUACACAUCGUAUGUACCGAAUCGGGGAAAAAAAGGGGAAAAAAAGGGGAAAAAAAGGAAAGUAUUAUGUUACGCCGUUCGGAUCU,-0.817
UCCUCAAGUCCUGUGCUACACAUCGUAUGUACCGAAUCGGGUGGGUGGUGGGAAAGUAUUAUGUUACGCCGUUCGGAUCUGCACUUCCAG,1.27
AGUCCUGUGCUACACAUCGUAUGUACCGAAUCGGGGAAAAGGAAAAGGGAAAAGGGGAAAGUAUUAUGUUACGCCGUUCGGAUCUGCACU,-1.02
GCCACCAUGCCCACCUAGUUUUUGCAUUUUUAGUGGAGGUGUGGUUUCACUGUGUUGGCCAGGCUGGUCUCUUAACUCCUGACCUCAGGU,0.152
CUCAAGUCCUGUGCUACACAUCGUAUGUACCGAAUCGGGAAGGGAAGGGAAGGAAAGUAUUAUGUUACGCCGUUCGGAUCUGCACUUCCA,-0.781
UGGGAGGUGGAUUUUGUUUAUUUUUUUAGCUCAUUUCCAGGGGUGGGAAUUUUUUUUUAAUAUGUGUCAUGAAUAAAGUUGUUUUUGAAA,2.78

# Repeated from above (block 4):
Modification,mean fluorescence intensity [a.u.]
2'F-ANA at 2 3 9 10 11 12 13 15,450
2'F-ANA at 1 4 5 6 13 14 15,46
2'F-ANA at 4 6 9 10 11 12 13 15,79
2'F-ANA at 2 5 6 9 11 12 13,81
2'F-ANA at 1 2 3 4 6 9 10 11 12,65.5
2'F-ANA at 1 3 10 11 12 13 14 15,62.3
